Published values gathered from unrelated publications.
Compare with care: the assays were run in different laboratories. Several values in a cell are separate wells, animals, samples, runs or records. Numbers after ± are the reported error.

COC1CN([C@H]2CC[C@H]([C@@]3(C)Oc4c(Cl)cc(C(=O)NCc5c(SC)cc(C)[nH]c5=O)c(C)c4O3)CC2)C1 — log2 fold change (RNA-seq, refers to: BMI1 mouse homolog; mouse, HT-1376 xenograft, whole blood; dose not given; relative to: vehicle): 0.986
Cc1cc(OCCOCCn2ccnc2)cc(C(C)C)c1 — larval motion (locomotor activity in dark; zebrafish larvae, 7 dpf; 10 µM, minute 3, dark phase): 0.8 ± 0.5 pixels/frame
COc1ccc(C(=O)CCc2cc(C(CCc3ccc(O)cc3OC)c3ccc(O)cc3)c(O)cc2OC)cc1 (racemic) — 14-HDHA level (human blood; 30 µM, together with: A23187): 765 ± 203 pg/mL
CCOC(=O)C1CCN(CCC(=O)Nc2ccccc2F)CC1 — larval motion (zebrafish larvae, 7 dpf; 10 µM, minute 4): 0.5 ± 0.3 pixels/frame
CC(C)c1cnc(-c2cc(Cl)ccc2F)cc1Nc1ccncc1C(=O)NC(CO)CO — CD8+ T cells (mice, MC-38 tumour, tumour; 10 mg/kg twice daily, 96 h, 4 day, then holiday, ×7; relative to: CD45+): 7.64%
O=C(CCN1CCN(C/C=C/c2ccccc2)CC1)Nc1ccccc1F — larval motion (zebrafish larvae, 7 dpf; 10 µM, minute 2): 7.8 ± 2 pixels/frame
COc1ccc(NC(=O)c2ccc3[nH]c(-c4ccc(N(C)C)cc4)nc3c2)cn1 — tumour volume (CT26, BALB/c mice, subcutaneous syngeneic graft; dose not given, day 9): 311 mm3 and 112 mm3 and 226 mm3 and 562 mm3 and 272 mm3
CC(=O)[O-].O.O.O.O.[Ni+2].[O-]c1ccc(Br)cc1C=NCCN1CCOCC1 — inhibition (nitric oxide scavenging; 200 µM): 42.9%
COc1ccccc1-c1ccncc1C(=O)Nc1nnc(OCc2ccc(Cl)cc2)s1 — colony survival (Brca1 Δ11/Δ11 MEF sgGFP, Mus musculus; 20 µM, mean of all runs; relative to: 0 µM): 19.4%
CC[C@H](C)[C@H](NC(=O)[C@H](Cc1ccc(O)cc1)NC(=O)[C@H](CCC(=O)O)NC(=O)CNC(=O)[C@H](CCC(=O)O)NC(=O)[C@H](CCCCN)NC(=O)[C@H](CCCCN)NC(=O)[C@H](CC(=O)O)NC(=O)[C@H](Cc1c[nH]cn1)NC(=O)[C@H](Cc1c[nH]cn1)NC(=O)[C@H](Cc1c[nH]cn1)NC(=O)[C@H](Cc1c[nH]cn1)NC(=O)[C@H](Cc1c[nH]cn1)NC(=O)[C@H](Cc1c[nH]cn1)NC(=O)[C@H](Cc1c[nH]cn1)NC(=O)[C@H](Cc1c[nH]cn1)NC(=O)[C@H](Cc1c[nH]cn1)NC(=O)[C@@H](N)Cc1c[nH]cn1)C(=O)N[C@@H](CCCCN)C(=O)N[C@@H](CC(C)C)C(=O)N[C@@H](CCCCN)C(=O)N[C@H](C(=O)N[C@H](C(=O)NCC(=O)N[C@@H](CCC(N)=O)C(=O)N[C@@H](CC(=O)O)C(=O)N[C@@H](CO)C(=O)N[C@@H](CO)C(=O)N[C@@H](CCC(=O)O)C(=O)N[C@H](C(=O)N[C@@H](Cc1c[nH]cn1)C(=O)N[C@@H](Cc1ccccc1)C(=O)N[C@@H](CCCCN)C(=O)N[C@H](C(=O)N[C@@H](CCCCN)C(=O)N[C@@H](CCSC)C(=O)N[C@H](C(=O)N[C@H](C(=O)N[C@@H](Cc1c[nH]cn1)C(=O)N[C@@H](CC(C)C)C(=O)N[C@@H](CCCCN)C(=O)N[C@@H](CCCCN)C(=O)N[C@@H](CC(C)C)C(=O)N[C@@H](CCCCN)C(=O)N[C@@H](CCC(=O)O)C(=O)N[C@@H](CO)C(=O)N[C@@H](Cc1ccc(O)cc1)C(=O)N[C@@H](CS)C(=O)N[C@@H](CCC(N)=O)C(=O)N[C@@H](CCCNC(=N)N)C(=O)N[C@@H](CCC(N)=O)C(=O)O)[C@@H](C)O)[C@@H](C)O)C(C)C)[C@@H](C)CC)[C@@H](C)CC)C(C)C — rhabdomere count mean difference (pseudopupil; Drosophila α-synuclein A53T transgenic; 240 µM; relative to: untreated): -2.32
CN1CCC[C@]1(C)/C=C/S(=O)(=O)NC(=O)Nc1c2c(cc3c1CCC3)CCC2 — IL-1β inhibition (human, whole blood ex vivo; 12.5 mg twice daily, day 1, 3 h, multiple ascending dose, together with: LPS and ATP): 98.4%
CCC(=O)N[C@@H](C)C(=O)OCC(=O)N[C@@H](C)C(=O)O — chain scission rate constant (water; pH 6, 65 °C): 0.0235 h⁻¹
S=C(S)OC1CC2CC1C1CCCC21 (stereo not drawn) — extracellular enkephalin concentration (inhibitor, LC-MS/MS, refers to: Met- or Leu-enkephalin; mouse striatal brain slices; 500 µM, 20 min, together with: 50 mM KCl): 115 pM and 645 pM and 309 pM and 97.3 pM and 404 pM and 388 pM and 471 pM and 737 pM
COc1cc(O)ccc1CCC(c1ccc(O)cc1)c1cc2c(c(C)c1O)OC(c1ccc(O)cc1)CC2 (mixture of isomers) — amount (refers to: 15-HEPE; human whole blood; 30 µM, together with: Escherichia coli): 153 ± 57 pg/mL blood
CNS(=O)(=O)Nc1nccc(Cc2c(C)c3ccc(Oc4ncccc4F)cc3oc2=O)c1F — IC50 (RS4-11; cell viability, inhibitor, CellTiter-Glo; 7 days): > 1000 nM
CN1CCCNC(=O)c2cccc(c2)C(=O)NCCCN(C)CCCNc2cccc3c2C(=O)c2cccc(c2C3=O)NCCC1 — log2 fold change (SAS; RNA-Seq, refers to: CCDC136 mRNA; 1 µM, 6 h; relative to: untreated cells): 2.71
CC(C)(C)NCC(SS(=O)(=O)O)c1ccccc1 (stereo not drawn) — spleen weight decrease (Swiss Webster mice, Schistosoma mansoni-infected; 400 mg/kg single dose on day 42 post-infection, perfusion day 56 post-infection; relative to: vehicle): 31%
COc1cc(N2CCN(C(=O)C3CCCN3)CC2)ccc1Nc1ncc(Cl)c(Nc2ccccc2P(C)(C)=O)n1 (stereo not drawn) — tumour volume (nude mice, NCI-H3122 xenograft; oral, 25 mg/kg every two days, day 1): 60.8 mm3 and 48.7 mm3 and 79.6 mm3 and 17.9 mm3 and 63 mm3
Nc1ncc(-c2cc(-c3cnn(CC(F)(F)F)c3)ncc2F)nc1C(=O)NC1CNCC(F)C1 (stereo not drawn) — remaining binding (TEC; KINOMEscan competition binding; 1 µM; relative to: DMSO control): 100%
Cc1ccc(C)c(OCC(O)CN2CCN(c3cc(Cl)ccc3C)CC2)c1 (stereo not drawn) — larval motion (zebrafish larvae, 7 dpf; 10 µM, minute 4): 1.2 ± 0.4 pixels/frame
Cc1cn(CC(=O)N(CC(=O)N[C@H]2COC[C@@H]2N(CC(=O)NCCOCCOCC(N)=O)C(=O)Cn2cnc3c(N)ncnc32)[C@H]2COC[C@@H]2NC(=O)CN(C(=O)Cn2cnc3c(N)ncnc32)[C@H]2COC[C@@H]2NC(=O)CN(C(=O)Cn2cnc3c(=O)[nH]c(N)nc32)[C@H]2COC[C@@H]2NC(=O)CN(C(=O)Cn2cc(C)c(=O)[nH]c2=O)[C@H]2COC[C@@H]2NC(=O)CN(C(=O)Cn2cnc3c(=O)[nH]c(N)nc32)[C@H]2COC[C@@H]2NC(=O)CN(C(=O)Cn2cc(C)c(=O)[nH]c2=O)[C@H]2COC[C@@H]2NC(=O)CN(C(=O)Cn2cnc3c(N)ncnc32)[C@H]2COC[C@@H]2NC(=O)CN(C(=O)Cn2cnc3c(=O)[nH]c(N)nc32)[C@H]2COC[C@@H]2N)c(=O)[nH]c1=O — Tm (UV melting; RNA duplex with T·U mismatch; pH 7.2, 1 µM each strand): 53.7 °C
Cc1cc(OCCOCCN(C)C)cc(C(C)C)c1 — larval motion (locomotor activity in dark; zebrafish larvae, 7 dpf; 10 µM, minute 1, dark phase): 3.5 ± 1 pixels/frame
CN(C)C(=O)c1ccnc(N2Cc3cn(Cc4ccc(F)cc4F)nc3C2)n1 — paired-pulse ratio (mouse, hippocampal slice, Schaffer collaterals; dose not given, interstimulus interval 300; relative to: second over first response): 1.24 and 1.32 and 1.23 and 1.26 and 1.16 and 1.75 and 1.14 and 1.22
CCCCCc1ccc(S(=O)(=O)N2CC2C(=O)OC)cc1 (stereo not drawn) — tumour growth inhibition (mouse, Lewis lung carcinoma; intraperitoneal, 15 mg/kg, 16 doses, day 13): 68%
COc1ccc2cc3[n+](cc2c1OC)CCc1cc2c(cc1-3)OCO2.[Cl][Fe-]([Cl])([Cl])[Cl] — DPPH scavenging (1.0 mg/mL, 30 min, 25 °C): 46%
C[C@@H]1CN(c2ccnc(C(=O)N[C@H]3C[C@@H]3c3ccccc3)c2)CC[C@@H]1O — creatine concentration (female heterozygous SLC6A8 P549L mice, hippocampus; oral, 30 mg/kg once daily): 795 µg/mL and 931 µg/mL and 1060 µg/mL
COc1ccc2c(c1)c(CC(=O)[O-])c(C)n2C(=O)c1ccc(Cl)cc1.COc1ccc2c(c1)c(CC(=O)[O-])c(C)n2C(=O)c1ccc(Cl)cc1.[Co+2].c1c[nH]cn1.c1c[nH]cn1 — DPPH radical scavenging (DPPH; methanol; concentration not given, 30 min): 15 ± 0.76%
O=C(CCN1CCN(C/C=C/c2ccccc2)CC1)Nc1ccccc1 — larval motion (zebrafish larvae, 7 dpf; 10 µM, minute 4): 12.3 ± 1.7 pixels/frame
C=CC(=O)Nc1cccc(Cn2ncc3cnc(Nc4cnn(CCOC)c4)nc32)c1 — percent of control (SBK1 human; binding, KINOMEscan; 100 nM; lower = stronger binding): 90%
Cc1cn(CC(=O)N(CCNC(=O)CN(CCNC(=O)CN(CCNC(=O)CN(CCNC(=O)CN(CCNC(=O)CN(CCNC(=O)CN(CCNC(=O)CN(CCN)C(=O)Cn2cnc3c(=O)[nH]c(N)nc32)C(=O)Cn2cnc3c(N)ncnc32)C(=O)Cn2cc(C)c(=O)[nH]c2=O)C(=O)Cn2cnc3c(=O)[nH]c(N)nc32)C(=O)Cn2cc(C)c(=O)[nH]c2=O)C(=O)Cn2cnc3c(=O)[nH]c(N)nc32)C(=O)Cn2cnc3c(N)ncnc32)CC(=O)NCCN(CC(=O)NCCOCCOCC(N)=O)C(=O)Cn2cnc3c(N)ncnc32)c(=O)[nH]c1=O — Tm (UV melting; RNA duplex with T·U mismatch; pH 7.2, 1 µM each strand): 31.3 °C
Cc1ncsc1-c1ccc(C(C)NC(=O)C2CC(O)CN2C(=O)C(NC(=O)CCCCCCCCCCN2CCCC(Nc3ncc(Cl)c(Nc4ccccc4S(=O)(=O)C(C)C)n3)C2)C(C)(C)C)cc1 (stereo not drawn) — log2 fold change (22Rv1; RNA-seq, refers to: ZFP69B mRNA; concentration not given; relative to: DMSO): -1.53
NC[C@@H](C(=O)Nc1ccc(-c2cn[nH]c2)cc1)c1ccccc1 — IOP (tonometry; NZW rabbit, magnetic bead-induced ocular hypertension; ocular, 0.1%, 8 h): 30.5 mmHg
CCc1cc(OCCOCCN(C)C)ccc1Cl — larval motion (locomotor activity in dark; zebrafish larvae, 7 dpf; 10 µM, minute 3, dark phase): 2.3 ± 1.2 pixels/frame
CC(C)OC(=O)[C@H](CO)NCc1cc(Cl)c(OCc2cccc(-c3ccccc3)c2Br)cc1OCc1cccnc1 — tumour volume (hPD-L1 MC-38 tumour, humanised hPD-1 C57BL/6 mouse; oral, 10 mg/kg × 21, day 20): 1000 ± 586 mm³
Cc1cn(CC(=O)N(CC(=O)N[C@H]2CCC[C@@H]2N(CC(=O)N[C@H]2COC[C@@H]2N(CC(=O)N[C@H]2COC[C@@H]2N(CC(=O)N[C@H]2COC[C@@H]2N(CC(=O)NCCOCCOCC(N)=O)C(=O)Cn2cnc3c(N)ncnc32)C(=O)Cn2cc(C)c(=O)[nH]c2=O)C(=O)Cn2cnc3c(N)ncnc32)C(=O)Cn2cnc3c(=O)[nH]c(N)nc32)[C@H]2CCC[C@@H]2NC(=O)CN(C(=O)Cn2cnc3c(=O)[nH]c(N)nc32)[C@H]2CCC[C@@H]2NC(=O)CN(C(=O)Cn2cc(C)c(=O)[nH]c2=O)[C@H]2COC[C@@H]2NC(=O)CN(C(=O)Cn2cnc3c(N)ncnc32)[C@H]2COC[C@@H]2NC(=O)CN(C(=O)Cn2cnc3c(=O)[nH]c(N)nc32)[C@H]2COC[C@@H]2N)c(=O)[nH]c1=O — Tm (UV melting; RNA duplex with T·G mismatch; pH 7.2, 1 µM each strand): 66.1 °C
Cc1cc(C(C)(C)C)ccc1OCCOCCN(C)C — larval motion (zebrafish larvae, 7 dpf; 10 µM, minute 6): 15 ± 1.4 pixels/frame

For quick reference, copied from above:
Cc1cn(CC(=O)N(CCNC(=O)CN(CCNC(=O)CN(CCNC(=O)CN(CCNC(=O)CN(CCNC(=O)CN(CCNC(=O)CN(CCNC(=O)CN(CCN)C(=O)Cn2cnc3c(=O)[nH]c(N)nc32)C(=O)Cn2cnc3c(N)ncnc32)C(=O)Cn2cc(C)c(=O)[nH]c2=O)C(=O)Cn2cnc3c(=O)[nH]c(N)nc32)C(=O)Cn2cc(C)c(=O)[nH]c2=O)C(=O)Cn2cnc3c(=O)[nH]c(N)nc32)C(=O)Cn2cnc3c(N)ncnc32)CC(=O)NCCN(CC(=O)NCCOCCOCC(N)=O)C(=O)Cn2cnc3c(N)ncnc32)c(=O)[nH]c1=O — Tm (UV melting; RNA duplex with T·U mismatch; pH 7.2, 1 µM each strand): 31.3 °C
Cc1ncsc1-c1ccc(C(C)NC(=O)C2CC(O)CN2C(=O)C(NC(=O)CCCCCCCCCCN2CCCC(Nc3ncc(Cl)c(Nc4ccccc4S(=O)(=O)C(C)C)n3)C2)C(C)(C)C)cc1 (stereo not drawn) — log2 fold change (22Rv1; RNA-seq, refers to: ZFP69B mRNA; concentration not given; relative to: DMSO): -1.53
NC[C@@H](C(=O)Nc1ccc(-c2cn[nH]c2)cc1)c1ccccc1 — IOP (tonometry; NZW rabbit, magnetic bead-induced ocular hypertension; ocular, 0.1%, 8 h): 30.5 mmHg
CCc1cc(OCCOCCN(C)C)ccc1Cl — larval motion (locomotor activity in dark; zebrafish larvae, 7 dpf; 10 µM, minute 3, dark phase): 2.3 ± 1.2 pixels/frame
